Literature values, collected from citations in different studies.
Each numbered part shows a few of the values that one paper quotes. ± gives the spread as reported.
Chain of UniProt P21553 (whole entry, looked up): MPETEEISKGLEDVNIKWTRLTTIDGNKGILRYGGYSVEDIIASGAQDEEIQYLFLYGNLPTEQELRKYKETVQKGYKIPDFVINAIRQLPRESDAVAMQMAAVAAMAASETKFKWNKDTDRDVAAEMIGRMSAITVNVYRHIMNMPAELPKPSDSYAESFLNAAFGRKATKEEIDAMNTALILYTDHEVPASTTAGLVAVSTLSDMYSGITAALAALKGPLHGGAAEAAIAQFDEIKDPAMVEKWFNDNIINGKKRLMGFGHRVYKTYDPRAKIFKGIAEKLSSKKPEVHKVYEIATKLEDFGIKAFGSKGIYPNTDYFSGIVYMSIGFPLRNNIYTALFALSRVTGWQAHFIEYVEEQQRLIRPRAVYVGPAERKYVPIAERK

Series 1
Target: HLA class I histocompatibility antigen, A alpha chain, allele A*80:01 (Homo sapiens, UniProt P04439)
Read-out: peptide-MHC binding
Form: peptide
With `ATATWFQYY` the IC50 was 14.7 nM.
`MELSLRAIQ` gave an IC50 of greater than 20000 nM.
`FHIVNQESL` gave an IC50 of greater than 20000 nM.
`EMKEAFHGL` has an IC50 of greater than 20000 nM.
The IC50 of `GAWCYDYTV` is reported as greater than 20000 nM.
The IC50 of `SSDDFALIV` is reported as 225 nM.
The IC50 of `ETIEILRNY` is reported as 9 nM.
`GMHDGTVGK` has an IC50 of greater than 20000 nM.
`KLADYLLLQ` has an IC50 of greater than 20000 nM.
With `NRDVSFQDL` the IC50 was greater than 20000 nM.
For `KSAAIDGEY`, the IC50 was 44.7 nM.
For `VVEKQSGLY`, the IC50 was 1 nM.
The IC50 of `KEAVNHFHL` is reported as greater than 20000 nM.
With `ITDFNIDTY` the IC50 was 308 nM.
With `ATRSHRPLI` the IC50 was greater than 20000 nM.
The IC50 of `TVYGLGADV` is reported as greater than 20000 nM.
The IC50 of `YMLMGFQLK` is reported as greater than 20000 nM.
`MTRGLLGSY` gave an IC50 of 174 nM.
`FEFILRYGD` gave an IC50 of greater than 20000 nM.
For `AFDLSFFLK`, the IC50 was 20000 nM.
`RKLTNPANK` gave an IC50 of greater than 20000 nM.
For `KMKDPKMYH`, the IC50 was greater than 20000 nM.
With `WLYDLWGQL` the IC50 was greater than 20000 nM.
The IC50 of `YALTEYHAM` is reported as greater than 20000 nM.
With `KLGDITLFL` the IC50 was 16 nM.

Mixed results
Under “intraocular pressure reduction”, `CCCCCc1cc(O)c2c(c1)OC(C)(C)[C@@H]1CCC(C)=C[C@@H]21` is recorded as roughly 40% (human; inhaled, dose not given, marijuana smoking).
With `CC(=O)SCCNC(=O)CCNC(=O)[C@H](O)C(C)(C)COP(=O)(O)OP(=O)(O)OC[C@H]1O[C@@H](n2cnc3c(N)ncnc32)[C@H](O)[C@@H]1OP(=O)(O)O` the kcat was 9.2 s⁻¹ (gltA (Thermoplasma acidophilum, UniProt P21553); substrate; 100 µM, pH 8, 20 °C, with: oxaloacetate 400 µM).
`Cc1nc(Nc2ncc(C(=O)Nc3c(C)cccc3Cl)s2)cc(N2CCN(CCO)CC2)n1`: “maximum tolerated dose” 85 mg/m² per dose (human children; twice daily single agent).
For `Cn1cc2cc(C(F)(F)c3nnc4ccc(-c5cnn(C6CC6)c5)nn34)c(F)cc2n1`, “median progression-free survival” read 14.1 months (human, NSCLC patients; dose not given, phase II).
`O=C(O)c1cc(-c2ccc([C@H]3C[C@H]4C[C@@H]3CN4)cc2)c2ccc(-c3ccc(C(F)(F)F)cc3)cc2c1` has a logD of 1.9 ± 0.1 (pH 7.4).
`CCC(CC)CSc1ccccc1OC(=O)NC` gave an IC50 of 104 nM (Anopheles gambiae AChE).
Under “time to treatment failure”, `COCCNCc1ccc(-c2cc3nccc(Oc4ccc(NC(=S)NC(=O)Cc5ccc(F)cc5)cc4F)c3s2)nc1` is recorded as 1 month (human; concentration not given).
The AUC of `NC(=O)c1ccc2c(c1O)[C@]13CCN(CC4CC4)[C@H](C2)[C@]1(O)CCC(=O)C3` is reported as 115 ng·h/mL (human; oral, 5 mg, day 1).
With `CCCCC/C=C\C/C=C\C/C=C\C/C=C\CCCC(=O)N[C@H](C)CO` the Ki was 17.9 nM (cannabinoid receptor CB1).
With `CNC(=O)Oc1ccccc1OC(C)C` the LD50 was 24 mg/kg (mouse).
`CC(C)(COP(=O)(O)OP(=O)(O)OC[C@H]1O[C@@H](n2cnc3c(N)ncnc32)[C@H](O)[C@@H]1OP(=O)(O)O)[C@@H](O)C(=O)NCCC(=O)NCCSCC(=O)O` has a Kd of roughly 23 nM (gltA, with oxaloacetate (Thermoplasma acidophilum, UniProt P21553)).
`O=c1c(O)c(-c2ccc(O)c(O)c2)oc2cc(O)cc(O)c12` has an IC50 of 2400 ± 200 nM (Zika virus NS2B-NS3 protease; enzyme activity, inhibitor; pH 8.5, 20% glycerol).
`CN(C)CCc1c[nH]cn1` has a selectivity ratio of 178 fold (histamine H3 receptor; relative to: Ki H4 over Ki H3).
`Cc1nc(NC(=O)N2CCC[C@H]2C(N)=O)sc1-c1ccnc(C(C)(C)C(F)(F)F)c1` — result for “maximum tolerated dose”: 400 mg once daily (human patients; single agent).
The blood-to-plasma ratio of `COc1ccc2c(c1)[C@]13CCCC[C@@H]1[C@H](C2)N(C)CC3` is reported as 1.7 (rat).
For `C[C@]12CC[C@@H]3c4ccc(O)cc4C[C@@H](CCCCCCCCC[S+]([O-])CCCC(F)(F)C(F)(F)F)[C@H]3[C@@H]1CC[C@@H]2O` (some centres unmarked), “median progression-free survival” read 6.5 months (human, ER+ breast cancer; dose not given, initial endocrine therapy).
With `Cc1ncc2n1-c1ccc(Cl)cc1C(c1ccccc1F)=NC2` the plasma clearance was 44.4 mL/min/kg (rat).
For `CC[C@H](C)CCCCC(=O)N[C@@H](CCN)C(=O)N[C@H](C(=O)N[C@@H](CCN)C(=O)N[C@H]1CCNC(=O)[C@H]([C@@H](C)O)NC(=O)[C@H](CCN)NC(=O)[C@H](CCN)NC(=O)[C@H](CC(C)C)NC(=O)[C@@H](CC(C)C)NC(=O)[C@H](CCN)NC1=O)[C@@H](C)O`, the nephrotoxicity incidence was 63.2% (patients; 3 to 5 mg/kg/day (ideal body weight)).
`O=C(O)c1cc(-c2ccc(C3CCNCC3)cc2)c2ccc(-c3ccc(C(F)(F)F)cc3)cc2c1` has a logD of 1.9 (pH 7.4).
With `CCCCC/C=C\C/C=C\C/C=C\C/C=C\CCCC(=O)NCCCl` the Ki was 1.4 nM (cannabinoid receptor CB1).
`CC1(C)[C@@H]2CC[C@@]1(C)[C@@H](N1C(=O)c3c(F)c(F)c(F)c(F)c3C1=O)C2` — result for “lowest effective concentration”: 100 nM (RAW264.7; TNF-α and nitrite reduction; with: LPS).
`COc1cc2oc(-c3ccc(O)c(O)c3)cc(=O)c2c(O)c1O` has an EC50 of 52000 nM (hepatitis C virus; viral replication; genotype 2a JFH-1).
Under “absorption rate constant”, `CC(C)C[C@H](NC(=O)CNC(=O)c1cc(Cl)ccc1Cl)B(O)O` is recorded as 0.34 h⁻¹ (population PK estimate).
Under pharmacokinetic profile, `CC[C@H](C)CCCCC(=O)N[C@@H](CCN)C(=O)N[C@H](C(=O)N[C@@H](CCN)C(=O)N[C@H]1CCNC(=O)[C@H]([C@@H](C)O)NC(=O)[C@H](CCN)NC(=O)[C@H](CCN)NC(=O)[C@H](CC(C)C)NC(=O)[C@@H](Cc2ccccc2)NC(=O)[C@H](CCN)NC1=O)[C@@H](C)O` is recorded as “no effect” (human, mild renal insufficiency; single dose; relative to: healthy subjects).
For `O=[N+]([O-])c1ccc(O)c([N+](=O)[O-])c1`, the weight loss was 2 to 3 pounds/week (human patients; 300 mg/day, food intake unaltered).

A few entries again (mixed results):
Under “intraocular pressure reduction”, `CCCCCc1cc(O)c2c(c1)OC(C)(C)[C@@H]1CCC(C)=C[C@@H]21` is recorded as roughly 40% (human; inhaled, dose not given, marijuana smoking).
With `CC(=O)SCCNC(=O)CCNC(=O)[C@H](O)C(C)(C)COP(=O)(O)OP(=O)(O)OC[C@H]1O[C@@H](n2cnc3c(N)ncnc32)[C@H](O)[C@@H]1OP(=O)(O)O` the kcat was 9.2 s⁻¹ (gltA (Thermoplasma acidophilum, UniProt P21553); substrate; 100 µM, pH 8, 20 °C, with: oxaloacetate 400 µM).
`Cc1nc(Nc2ncc(C(=O)Nc3c(C)cccc3Cl)s2)cc(N2CCN(CCO)CC2)n1`: “maximum tolerated dose” 85 mg/m² per dose (human children; twice daily single agent).
For `Cn1cc2cc(C(F)(F)c3nnc4ccc(-c5cnn(C6CC6)c5)nn34)c(F)cc2n1`, “median progression-free survival” read 14.1 months (human, NSCLC patients; dose not given, phase II).
`O=C(O)c1cc(-c2ccc([C@H]3C[C@H]4C[C@@H]3CN4)cc2)c2ccc(-c3ccc(C(F)(F)F)cc3)cc2c1` has a logD of 1.9 ± 0.1 (pH 7.4).
